{"data": "Measured values gathered from unrelated publications", "target": "Serine/threonine-protein kinase PLK3 (PLK3, Homo sapiens, UniProt Q9H4B4)", "note": "Lines come from different studies, so protocols differ.", "UniProt Q9H4B4, sequence (whole entry, looked up)": "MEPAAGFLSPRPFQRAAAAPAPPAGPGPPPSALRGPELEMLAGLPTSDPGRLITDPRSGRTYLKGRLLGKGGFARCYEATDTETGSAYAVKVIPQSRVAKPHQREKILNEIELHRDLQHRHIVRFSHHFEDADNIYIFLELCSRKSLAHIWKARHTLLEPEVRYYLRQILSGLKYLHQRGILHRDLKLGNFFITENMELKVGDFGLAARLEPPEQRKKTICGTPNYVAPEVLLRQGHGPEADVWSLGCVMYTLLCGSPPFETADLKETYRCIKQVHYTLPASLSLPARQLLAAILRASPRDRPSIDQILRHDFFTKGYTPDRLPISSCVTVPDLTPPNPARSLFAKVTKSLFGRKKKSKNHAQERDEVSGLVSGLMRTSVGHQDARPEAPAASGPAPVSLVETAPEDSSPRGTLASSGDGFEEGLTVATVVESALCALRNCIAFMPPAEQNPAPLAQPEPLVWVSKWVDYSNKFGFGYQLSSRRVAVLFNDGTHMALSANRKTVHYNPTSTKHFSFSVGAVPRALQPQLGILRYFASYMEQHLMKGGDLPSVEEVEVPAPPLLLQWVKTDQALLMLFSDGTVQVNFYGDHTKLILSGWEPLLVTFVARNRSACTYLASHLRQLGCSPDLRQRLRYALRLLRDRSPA"}
{"SMILES": "C[C@H](NCc1ccc(-c2ccc(C(F)(F)F)cc2)cc1)C(N)=O", "test": "cell-free assay, competition with immobilised ligand", "conditions": "1 µM", "quantity": "inhibition", "value": "13%"}
{"SMILES": "CN(/N=C/c1ccccc1C(=O)O)c1nc(-c2ccccc2Cl)cs1", "test": "enzyme activity, inhibitor", "conditions": "1 µM", "quantity": "inhibition", "value": "-10.9%"}
{"SMILES": "O=C1NC(=O)c2c1c1cc(F)c[n+]3c1c1c2c2cc(O)ccc2[n]1[Ru-4]312([N]=C=S)[S+]3CC[S+]1CC[S+]2CC3 (centres unmarked)", "test": "enzyme activity", "conditions": "100 nM, human enzyme, added: 10 µM ATP", "how to read": "reference: untreated", "quantity": "remaining activity", "value": "102%"}
{"SMILES": "CC(C)[C@H]1NC(=O)C[C@H]2/C=C/CCSSC[C@@H](NC1=O)C(=O)N[C@H](Cc1cccc3ccccc13)C(=O)NCC(=O)O2", "test": "enzyme activity, inhibitor", "conditions": "10 µM", "quantity": "inhibition", "value": "-8.4%"}
{"SMILES": "CCOC(=O)[C@@H]1Cc2c(cc([N+](=O)[O-])cc2[N+](=O)[O-])[C@H](O)[C@]12C(=O)Nc1ccc(Br)cc12", "test": "binding, competition with immobilised ligand", "conditions": "0.1 µM", "quantity": "remaining binding", "value": "55%"}
{"SMILES": "O=C(O)c1ccccc1/C=N/Nc1nc(-c2ccccc2Cl)cs1", "test": "enzyme activity, inhibitor", "conditions": "1 µM", "quantity": "inhibition", "value": "-3.03%"}
{"SMILES": "Nc1ccc(/C=C/C(=O)N2CCc3c(oc4c(-c5ccc(F)cc5)cc(-c5ccc(C(=O)N6CCC(F)(F)CC6)cn5)cc34)C2)cn1", "test": "binding, competition with immobilised ligand", "conditions": "1 µM", "quantity": "remaining binding", "value": "94%"}
{"SMILES": "CS(C)(=O)=Nc1ccc(-c2ccc(-c3nc4cc(O[C@@H]5CO[C@H]6[C@@H]5OC[C@H]6O)[nH]c4cc3F)cc2)cc1", "test": "enzyme activity, inhibitor", "conditions": "10 µM", "quantity": "inhibition", "value": "-6%"}
{"note": "Excerpt of the above:"}
{"SMILES": "C[C@H](NCc1ccc(-c2ccc(C(F)(F)F)cc2)cc1)C(N)=O", "test": "cell-free assay, competition with immobilised ligand", "conditions": "1 µM", "quantity": "inhibition", "value": "13%"}
